Published values of several laboratories.
Parts stem from different laboratories: compare values within a part only.

Series 1
Target: Ras GTPase-activating protein-binding protein 1, full length (G3BP1, Homo sapiens, UniProt Q13283)
UniProt Q13283, sequence (whole entry, looked up): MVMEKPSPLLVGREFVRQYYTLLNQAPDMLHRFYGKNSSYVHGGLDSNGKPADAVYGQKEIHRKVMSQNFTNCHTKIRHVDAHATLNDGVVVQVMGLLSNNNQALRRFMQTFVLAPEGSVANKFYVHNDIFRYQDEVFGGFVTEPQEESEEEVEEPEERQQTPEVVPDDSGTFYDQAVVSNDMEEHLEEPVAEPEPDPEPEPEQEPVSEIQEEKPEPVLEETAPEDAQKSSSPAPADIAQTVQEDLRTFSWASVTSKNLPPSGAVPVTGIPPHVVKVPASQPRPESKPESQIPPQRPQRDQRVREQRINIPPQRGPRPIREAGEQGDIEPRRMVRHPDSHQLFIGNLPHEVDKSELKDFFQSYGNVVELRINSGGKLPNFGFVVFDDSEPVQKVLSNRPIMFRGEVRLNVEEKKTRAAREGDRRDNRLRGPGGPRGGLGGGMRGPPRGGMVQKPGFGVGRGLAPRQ
Method: RNA Bind-n-Seq
Molecule type: RNA
Sample: in vitro
Tested at: 200 nM
Setting: whole 134-nt RNA, ends assumed
Together with: 150 mM KCl
Baseline: input library
Reading: higher = stronger binding
All sequences stand within: GGGAGUUCUACAGUCCGACGAUC … UGGAAUUCUCGGGUGUCAAGG
Oligonucleotide | log2 enrichment
UGGCCCUGGUGGCAUGCGGGGAGGAAGAGGUGGCCUCAUGGAUCGUGGUGGUCCCGGUGGAAUGUUCAGAGGUGGCCGUGGUGGAAACAG | 0.218
AAGUCCUGUGCUACACAUCGUAUGUACCGAAUCAAACCCAAACCCAAACCCCCAAAAAAGUAUUAUGUUACGCCGUUCGGAUCUGCACUU | -0.725
GCAGGACGUAAAAACAAAUGGAAAUGCUUCGGAUAGUGGCAGGGGUGGGGGUUGCUAAGGAAAGGGUGGGAUGGGAGUGGGUAAAGAGUU | 1.39
GUCCUGUGCUACACAUCGUAUGUACCGAAUCGGGGUUUUUGGGGUUUGGGGUUUGGGGAAAGUAUUAUGUUACGCCGUUCGGAUCUGCAC | 0.813
AGUCCUGUGCUACACAUCGUAUGUACCGAAUCAAAUUUAAACCCCCCCAAAUUUAAAAAAGUAUUAUGUUACGCCGUUCGGAUCUGCACU | -0.203
CUCAAGUCCUGUGCUACACAUCGUAUGUACCGAAUCGGUGGAAAAAGGAAAGGAAAGUAUUAUGUUACGCCGUUCGGAUCUGCACUUCCA | -0.402
AGUCCUGUGCUACACAUCGUAUGUACCGAAUCAAACCCAAAUUUUUAAACCCCCAAAAAAGUAUUAUGUUACGCCGUUCGGAUCUGCACU | -0.395
CCUCAAGUCCUGUGCUACACAUCGUAUGUACCGAAUCGGAGGUUUUUGGAGGAAAGUAUUAUGUUACGCCGUUCGGAUCUGCACUUCCAG | 0.0315
UCCUCAAGUCCUGUGCUACACAUCGUAUGUACCGAAUCGGGGCGGCGGGCGGAAAGUAUUAUGUUACGCCGUUCGGAUCUGCACUUCCAG | 0.0871

Series 2
Target: Phosphate system positive regulatory protein PHO4, full length, GST-tagged (PHO4, Saccharomyces cerevisiae, UniProt P07270, residues 1-312)
Method: competition protein-binding microarray
Molecule type: double-stranded DNA, one strand shown
Sample: in vitro
Tested at: 2 µM
Setting: whole 60-bp probe, lowest competitor level
Together with: Cbf1 competitor, 0.05 µM
Reading: higher = stronger binding
All sequences stand within: … GTCTTGATTCGCTTGACGCTGCTG
Target sequence (chain): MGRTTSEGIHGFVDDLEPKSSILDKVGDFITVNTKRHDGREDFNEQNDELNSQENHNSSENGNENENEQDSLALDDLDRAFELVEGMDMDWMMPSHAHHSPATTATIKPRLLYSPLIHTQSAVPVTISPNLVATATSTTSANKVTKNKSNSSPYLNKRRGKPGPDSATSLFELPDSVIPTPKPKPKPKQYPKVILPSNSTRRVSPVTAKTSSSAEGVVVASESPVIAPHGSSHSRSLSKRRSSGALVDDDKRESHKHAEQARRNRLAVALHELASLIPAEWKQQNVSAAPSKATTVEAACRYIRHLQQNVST
Oligonucleotide | fluorescence intensity
CTAACGAAGGTTTTTCACGTGTAATACAAGCCAAGT | 11900 a.u.
TGTTACACATCGACATACGTGCTTTCATAGAAAGAG | 7830 a.u.
CTTCTGTAAATTTGCTAGGTGGGTGGACGCGCCCCG | 3640 a.u.
CTAACGAAGGTTTGCCCCGTGGGTGACAAGCCAAGT | 11200 a.u.
GTGTTAAAGACTTGTAAAAGTTGCCGTAAAACACTA | 3950 a.u.
GGGAGGGAAGACTGGAACGTGCAAAGAAGCTATTCG | 12600 a.u.
AGCTGGGAAAACTTCCATGTGGTCTTCGTCCTCAAC | 8780 a.u.
AGACTGGGTCTCAGTCAGCTGAACAGAAAACTTCAA | 2110 a.u.
TTCTGCATCCAATATCACCTGACGTTCATCTTTATG | 4040 a.u.
GATTAGTTTCAGGTACATGTGTCAAATGAGGATAAA | 8460 a.u.
AATCGTTAACACCGTCACCTGTCATTGTGCAGAACT | 5280 a.u.

Series 3
Target: Histone acetyltransferase KAT6A, winged helix 1, GST fusion (KAT6A, Homo sapiens, UniProt Q92794, residues 1-85)
Method: protein binding microarray
Molecule type: double-stranded DNA, one strand shown
Sample: in vitro
Tested at: not given
Setting: 8-mer, flanks averaged, mean of 2 arrays, mostly near background
Baseline: not given
Reading: higher = stronger binding
Residues (chain): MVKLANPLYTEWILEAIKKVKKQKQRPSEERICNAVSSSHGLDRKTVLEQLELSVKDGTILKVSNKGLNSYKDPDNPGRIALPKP
Oligonucleotide | E-score
CTGAAGAC | -0.0284
AGGCGCGA | 0.294
CCCCTGCA | -0.151
ACTAACGC | 0.0595
GACTTACC | 0.0774
AGAGAGCC | 0.0226
CAGCCATC | -0.0626
CTCCTTGA | -0.072
ATTTCTCG | -0.107
GCCAGGAA | 0.0566
AGGGCAGC | -0.106
CACGTGGC | -0.0331
ATGGTTCG | 0.0886
GAACAGTA | 0.0342
TGAAGAAA | -0.0501
AGGCATCA | -0.237
AACCCCTG | -0.247
CAATGCGG | 0.169
CAGTAACG | 0.144

Series 4
Target: RING finger protein unkempt homolog, zinc fingers 1-6, GST-SBP tag (UNK, Homo sapiens, UniProt Q9C0B0, residues 30-357)
Method: RNA Bind-n-Seq
Molecule type: RNA
Sample: in vitro
Tested at: not given
Setting: RNA with constant flanks, human-mouse chimeric sites, ends assumed
Baseline: input RNA pool
Reading: higher = stronger binding
All sequences stand within: GGGAGUUCUACAGUCCGACGAUC … CAACAGAGGAUUGAGCAUCA
Residues (chain): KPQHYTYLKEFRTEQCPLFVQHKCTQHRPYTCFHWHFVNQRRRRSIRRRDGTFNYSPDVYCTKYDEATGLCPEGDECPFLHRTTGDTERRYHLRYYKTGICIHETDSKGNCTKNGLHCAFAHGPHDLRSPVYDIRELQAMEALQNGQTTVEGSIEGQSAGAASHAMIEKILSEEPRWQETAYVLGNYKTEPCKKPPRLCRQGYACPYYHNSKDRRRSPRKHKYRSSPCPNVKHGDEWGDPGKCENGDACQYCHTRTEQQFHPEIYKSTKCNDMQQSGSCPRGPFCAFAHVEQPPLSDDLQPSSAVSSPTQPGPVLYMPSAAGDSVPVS
Oligonucleotide | bound/input enrichment [ratio]
ACCUCCCCCUCCCGCCUGCUUUUUGAACCGCUUUUUGGAAAGUUUUUGGCUUUUUUUUUCCUUCCCCAUACAAAGUGAUUACAGUUUCCCCCGCAAGGGUCUAUCGAAGGGCUUGACGGA | 1.1
UUGCUACUAACUCCAUGGGUCAAGUUCCUGUGGGAAUCAUACAGGCAGUGUUUGGACCUUCUUCGAAACAAUUCUAGAGUAGAGCGCCUUUACCAUGAUAUCGCCCAGCAAGCUUUCAAA | 0.214
UCUUAACUUAUUCAUUUAACUUAUUUUUAUAGCUAGAUAAAUAUUGUUAGUCUUAGACAAUAGCUCACAUUUUUUGAGAAGCAUGCCCUCCCUAUCCAUUUGUCUUACAAUAACACUCAG | 6.64
GCGGCAGAAUCAUGGUGGACAUAAUGCAGCUCCCCAAAGCGCGCGUCAACGCCAGCAUGUUACCACAGUAUAUCGACCGGCCCGUGUGCUUCGUGGGGAAGCUGGAAAAGAUUCAUCCCA | 0.113
GAAUCCUACUCAGGCGGAUUUUGCAACCUGAAUGCAACAGCAGCAGCUCCAUAGUCACAGUAGGGUAGUUUUGGGGCUCUGUGGCCAGGGUUUUAUUCACAUGCAGGUUUGGAAAAUGUA | 0.713
GGACCAUAAUCAUGGAGGACAUAAUGCAGCUCCCCAAGUCGCGCAUCAACGCCAGCAUGUUACCACAGUAUAUCGACCGGCCCGUGUGCUUCGUGGGGAAGCUGGAAAAGAUUCAUCCCA | 0.0771
ACAGUUAUAUUGUUGAGUUUCAUUUUCUUGUAUGUUUGUAGUGUCUGCUUGCCUGUGACUUCUGGUAAAAUAAAAUAAGCCUUUGAAAAUAUUUUAGAUUUAACAUUAACAUUUUCUAAA | 2.99
CAGGGCAUCAUCUCUCGAGCUGUUAAACACCUUUUUAAGAGUAUUGAUGAGAAAAAGACCUCAGCGAUUAAAAACGGGCUGCCCCCUCCUGAAUUCAAAGUGAAUGCCCAGUUCCUAGAG | 0.632

Excerpt of the above (series 3):
Oligonucleotide | E-score
ATGGTTCG | 0.0886
GAACAGTA | 0.0342
TGAAGAAA | -0.0501
AGGCATCA | -0.237
AACCCCTG | -0.247
CAATGCGG | 0.169
